Measured values from different studies.
Each numbered part is a random draw from the data of one study; scales do not carry over between parts.
Sequence of UniProt P42336 (whole entry, unmodified, looked up): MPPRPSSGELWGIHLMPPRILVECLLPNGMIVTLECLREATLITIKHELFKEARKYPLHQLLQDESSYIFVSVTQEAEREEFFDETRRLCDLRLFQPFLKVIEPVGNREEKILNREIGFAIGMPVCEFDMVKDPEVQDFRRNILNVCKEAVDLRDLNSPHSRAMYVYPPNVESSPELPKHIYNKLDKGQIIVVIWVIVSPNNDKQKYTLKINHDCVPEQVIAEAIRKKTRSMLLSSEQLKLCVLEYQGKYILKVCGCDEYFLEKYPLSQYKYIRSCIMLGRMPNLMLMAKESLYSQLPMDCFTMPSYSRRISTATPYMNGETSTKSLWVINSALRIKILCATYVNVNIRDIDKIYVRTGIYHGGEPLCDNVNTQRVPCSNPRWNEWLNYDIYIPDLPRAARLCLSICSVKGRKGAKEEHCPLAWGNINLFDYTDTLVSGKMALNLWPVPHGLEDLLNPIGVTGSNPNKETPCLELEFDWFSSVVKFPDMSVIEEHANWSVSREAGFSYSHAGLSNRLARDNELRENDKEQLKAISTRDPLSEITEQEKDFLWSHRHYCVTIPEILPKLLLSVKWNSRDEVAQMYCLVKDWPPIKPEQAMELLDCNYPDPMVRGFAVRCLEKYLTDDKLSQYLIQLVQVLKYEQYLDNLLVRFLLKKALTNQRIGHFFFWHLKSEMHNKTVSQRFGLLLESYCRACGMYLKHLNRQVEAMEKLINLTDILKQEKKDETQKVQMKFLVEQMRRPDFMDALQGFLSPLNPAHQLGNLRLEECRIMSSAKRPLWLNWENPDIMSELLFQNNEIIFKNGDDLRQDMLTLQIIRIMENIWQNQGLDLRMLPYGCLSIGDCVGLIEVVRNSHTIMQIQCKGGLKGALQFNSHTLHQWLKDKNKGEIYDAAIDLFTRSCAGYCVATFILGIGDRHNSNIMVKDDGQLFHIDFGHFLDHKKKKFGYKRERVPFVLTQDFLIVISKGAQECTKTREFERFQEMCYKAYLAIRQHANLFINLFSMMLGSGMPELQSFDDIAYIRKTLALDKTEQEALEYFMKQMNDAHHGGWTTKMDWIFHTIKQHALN
Sequence of UniProt Q9UBF8 (whole entry, looked up): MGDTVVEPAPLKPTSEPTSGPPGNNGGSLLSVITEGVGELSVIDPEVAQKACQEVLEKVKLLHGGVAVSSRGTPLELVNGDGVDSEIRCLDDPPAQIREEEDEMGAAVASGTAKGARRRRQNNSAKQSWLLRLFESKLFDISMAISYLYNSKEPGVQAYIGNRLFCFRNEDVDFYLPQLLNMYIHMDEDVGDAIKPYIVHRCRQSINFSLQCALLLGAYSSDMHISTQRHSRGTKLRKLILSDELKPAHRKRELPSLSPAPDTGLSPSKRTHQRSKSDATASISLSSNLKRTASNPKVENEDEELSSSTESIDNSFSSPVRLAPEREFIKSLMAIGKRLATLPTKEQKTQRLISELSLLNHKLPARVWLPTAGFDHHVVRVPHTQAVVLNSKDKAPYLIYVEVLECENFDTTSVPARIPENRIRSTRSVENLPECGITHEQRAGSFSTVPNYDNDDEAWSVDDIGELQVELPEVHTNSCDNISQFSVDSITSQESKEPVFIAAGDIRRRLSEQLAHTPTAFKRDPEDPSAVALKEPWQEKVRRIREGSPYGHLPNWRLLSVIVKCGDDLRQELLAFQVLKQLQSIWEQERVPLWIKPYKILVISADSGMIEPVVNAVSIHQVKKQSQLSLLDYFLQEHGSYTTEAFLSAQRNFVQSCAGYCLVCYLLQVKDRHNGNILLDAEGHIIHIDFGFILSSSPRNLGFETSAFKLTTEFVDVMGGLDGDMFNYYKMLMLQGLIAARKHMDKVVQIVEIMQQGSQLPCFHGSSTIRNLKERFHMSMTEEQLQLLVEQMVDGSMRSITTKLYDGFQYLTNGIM
Sequence of UniProt Q15139 (whole entry, looked up): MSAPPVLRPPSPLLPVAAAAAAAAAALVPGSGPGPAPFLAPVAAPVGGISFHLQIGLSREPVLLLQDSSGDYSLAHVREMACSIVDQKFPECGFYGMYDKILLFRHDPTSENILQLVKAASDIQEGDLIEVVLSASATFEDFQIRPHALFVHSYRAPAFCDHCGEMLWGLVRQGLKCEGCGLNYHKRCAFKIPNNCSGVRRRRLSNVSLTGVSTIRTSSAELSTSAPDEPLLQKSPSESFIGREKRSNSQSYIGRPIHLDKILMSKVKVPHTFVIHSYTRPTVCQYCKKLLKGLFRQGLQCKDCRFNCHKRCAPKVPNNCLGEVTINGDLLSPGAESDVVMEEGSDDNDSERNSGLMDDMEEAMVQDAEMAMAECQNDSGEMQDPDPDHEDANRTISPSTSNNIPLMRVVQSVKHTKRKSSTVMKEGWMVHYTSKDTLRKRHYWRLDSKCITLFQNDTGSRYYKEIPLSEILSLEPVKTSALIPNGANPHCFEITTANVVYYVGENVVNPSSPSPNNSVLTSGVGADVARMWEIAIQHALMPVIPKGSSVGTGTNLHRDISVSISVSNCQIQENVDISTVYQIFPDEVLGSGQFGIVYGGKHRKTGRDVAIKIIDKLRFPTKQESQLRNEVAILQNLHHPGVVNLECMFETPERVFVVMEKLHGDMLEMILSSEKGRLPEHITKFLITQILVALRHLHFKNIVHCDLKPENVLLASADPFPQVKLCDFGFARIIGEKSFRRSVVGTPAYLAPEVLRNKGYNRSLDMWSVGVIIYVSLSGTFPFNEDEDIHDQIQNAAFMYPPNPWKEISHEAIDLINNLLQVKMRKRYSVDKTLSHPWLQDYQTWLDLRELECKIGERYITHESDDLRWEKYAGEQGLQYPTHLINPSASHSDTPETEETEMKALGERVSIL
Sequence of UniProt Q9H2X6 (whole entry, looked up): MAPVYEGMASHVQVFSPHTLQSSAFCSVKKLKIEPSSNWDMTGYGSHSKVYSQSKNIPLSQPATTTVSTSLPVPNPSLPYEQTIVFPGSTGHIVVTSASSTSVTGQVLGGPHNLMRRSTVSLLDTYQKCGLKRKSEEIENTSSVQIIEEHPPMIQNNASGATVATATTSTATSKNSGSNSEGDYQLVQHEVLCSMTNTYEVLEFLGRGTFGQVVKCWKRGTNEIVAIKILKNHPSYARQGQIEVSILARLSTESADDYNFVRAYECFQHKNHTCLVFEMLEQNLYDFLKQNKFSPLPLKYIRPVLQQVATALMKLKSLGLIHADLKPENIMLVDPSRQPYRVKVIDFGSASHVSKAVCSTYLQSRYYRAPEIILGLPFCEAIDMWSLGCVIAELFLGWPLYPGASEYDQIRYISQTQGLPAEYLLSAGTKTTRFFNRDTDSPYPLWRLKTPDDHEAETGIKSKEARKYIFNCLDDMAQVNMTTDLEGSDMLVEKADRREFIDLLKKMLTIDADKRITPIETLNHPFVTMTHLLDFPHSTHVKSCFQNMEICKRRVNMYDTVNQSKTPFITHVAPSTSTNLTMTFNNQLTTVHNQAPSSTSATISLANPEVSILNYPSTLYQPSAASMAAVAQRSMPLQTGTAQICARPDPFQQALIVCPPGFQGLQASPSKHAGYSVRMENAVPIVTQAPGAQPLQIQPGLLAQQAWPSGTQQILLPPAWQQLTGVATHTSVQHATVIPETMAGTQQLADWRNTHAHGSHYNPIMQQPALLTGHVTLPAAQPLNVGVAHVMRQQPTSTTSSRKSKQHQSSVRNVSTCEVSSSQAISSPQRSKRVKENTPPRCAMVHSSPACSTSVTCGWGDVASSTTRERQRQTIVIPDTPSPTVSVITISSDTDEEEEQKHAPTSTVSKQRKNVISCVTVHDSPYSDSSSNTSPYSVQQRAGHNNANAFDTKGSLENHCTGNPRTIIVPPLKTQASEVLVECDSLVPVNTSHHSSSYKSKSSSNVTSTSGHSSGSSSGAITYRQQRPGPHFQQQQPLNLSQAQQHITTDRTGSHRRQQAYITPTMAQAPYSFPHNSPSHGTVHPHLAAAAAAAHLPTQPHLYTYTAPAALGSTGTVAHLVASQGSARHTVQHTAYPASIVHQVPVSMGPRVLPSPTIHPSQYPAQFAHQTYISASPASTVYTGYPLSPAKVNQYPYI

Block 1
Structure (SMILES): Cn1nc(C(=O)NCc2ccc(C(=O)O)cc2)cc1-c1ccc2[nH]ccc2c1
Method: competition with immobilised ligand
Tested at: 0.1 µM
For IRAK4 (Homo sapiens, UniProt Q9NWZ3); cell-free assay: remaining binding read 71%.
For RET (Homo sapiens, UniProt P07949); cell-free assay: remaining binding read 83%.
It gave 62% for remaining binding (Tyrosine-protein kinase ABL1, phosphorylated (ABL1, Homo sapiens, UniProt P00519, F317L); cell-free assay).
BMPR1A (Homo sapiens, UniProt P36894); binding — remaining binding: 94%.
The remaining binding was 80% (MAP3K20 (Homo sapiens, UniProt Q9NYL2); cell-free assay).
The remaining binding was 95% (PRKD1 (Homo sapiens, UniProt Q15139); cell-free assay).
It gave 70% for remaining binding (PI4KB (Homo sapiens, UniProt Q9UBF8); cell-free assay).
MAP3K9 (Homo sapiens, UniProt P80192); cell-free assay — remaining binding: 100%.
The remaining binding was 100% (Ribosomal protein S6 kinase alpha-2, N-terminal kinase domain (RPS6KA2, Homo sapiens, UniProt Q15349); cell-free assay).
For FYN (Homo sapiens, UniProt P06241); cell-free assay: remaining binding read 98%.
For MAP4K5 (Homo sapiens, UniProt Q9Y4K4); cell-free assay: remaining binding read 96%.
BTK (Homo sapiens, UniProt Q06187); cell-free assay — remaining binding: 77%.
PIK3CA (Homo sapiens, UniProt P42336, M1043I); cell-free assay — remaining binding: 85%.
For Tyrosine-protein kinase ABL1, phosphorylated (ABL1, Homo sapiens, UniProt P00519, Q252H); cell-free assay: remaining binding read 77%.
It gave 81% for remaining binding (PRKAA1 (Homo sapiens, UniProt Q13131); cell-free assay).
ROS1 (Homo sapiens, UniProt P08922); cell-free assay — remaining binding: 74%.
BMPR2 (Homo sapiens, UniProt Q13873); cell-free assay — remaining binding: 83%.

Block 2
Structure (SMILES): Cc1ccc(NC(=O)c2ccnc(C(F)(F)F)c2)cc1-c1cc(OCCO)nc(N2CCOCC2)c1
Tested at: 1 µM
The remaining binding was 100% (TGFBR1 (Homo sapiens, UniProt P36897); competitive binding panel; relative to: vehicle).
It gave 100% for remaining binding (NTRK2 (Homo sapiens, UniProt Q16620); competitive binding; TRKB).
PIK3CA (Homo sapiens, UniProt P42336, E545A); competitive binding panel; relative to: vehicle — remaining binding: 88%.
It gave 100% for remaining binding (PIP4K2C (Homo sapiens, UniProt Q8TBX8); competitive binding panel, measured: PIP5K2C; relative to: vehicle).
For HIPK2 (Homo sapiens, UniProt Q9H2X6); competitive binding panel; relative to: vehicle: remaining binding read 76%.
It gave 97% for remaining binding (EIF2AK2 (Homo sapiens, UniProt P19525); competitive binding, scanMAX; PRKR, 1000 nM).
It gave 93% for remaining binding (CDKL3 (Homo sapiens, UniProt Q8IVW4); competitive binding panel; relative to: vehicle).
The remaining binding was 87% (YES1 (Homo sapiens, UniProt P07947); competitive binding; YES).
For IGF1R (Homo sapiens, UniProt P08069); competitive binding panel; relative to: vehicle: remaining binding read 100%.
The remaining binding was 100% (MAP3K12 (Homo sapiens, UniProt Q12852); competitive binding, scanMAX; DLK, 1000 nM).
The remaining binding was 88% (CDC42BPB (Homo sapiens, UniProt Q9Y5S2); competitive binding, scanMAX; MRCKB, 1000 nM).
For MAPK9 (Homo sapiens, UniProt P45984); competitive binding; JNK2: remaining binding read 83%.
It gave 0.3% for remaining binding (DDR1 (Homo sapiens, UniProt Q08345); competitive binding panel; relative to: vehicle).
It gave 100% for remaining binding (CAMK4 (Homo sapiens, UniProt Q16566); competitive binding panel; relative to: vehicle).
It gave 69% for remaining binding (JAK2 (Homo sapiens, UniProt O60674); competitive binding panel; JH1 catalytic domain; relative to: vehicle).
TNK1 (Homo sapiens, UniProt Q13470); competitive binding panel; relative to: vehicle — remaining binding: 100%.

Block 3
Species: human
Medium: microsomes or S9
Tested at: 2 µM
Time: 0.5 h
`O=S1(=O)CCN2N=C(c3ccccc3)C(c3ccccc3)=NC2=N1` has a remaining compound of 95.5%.
For `O=C(NC1CCCC1)C1(Cc2ccccn2)CCOCC1`, the remaining compound was 87.8%.
For `c1ccc2c(c1)oc1c(-c3cn(C[C@H]4CCCN4)nn3)cccc12`, the remaining compound was > 100%.
`COc1cc(C)c2c(c1C=O)Oc1c(c(C)c(O)c3c1C(O)OC3=O)OC2=O` (centres unmarked) gave a remaining compound of > 99%.
For `c1ccc2c(c1)CC(CNc1nccc(-n3cccn3)n1)CO2` (centres unmarked), the remaining compound was 1.18%.
`O=S(=O)(Nc1cccn2c(C3CCC3)nnc12)c1ccc2c(c1)OCCO2` has a remaining compound of 63.2%.
For `COc1ccccc1NC(=O)NC1Cc2ccccc2C1`, the remaining compound was 45%.
The remaining compound of `O=C(CN1N=C(c2ccccc2)Cn2c(cc3ccccc32)C1=O)N1CCN2CCCC2C1` (centres unmarked) is reported as 7.39%.
The remaining compound of `Cc1cc2c(cc1C)OC(c1nc(N(C)C)no1)C2` (centres unmarked) is reported as 10.8%.
With `COC(=O)[C@@]1(C)CCC(C(=O)Nc2ccccc2C(=O)O)C1(C)C` (some centres unmarked) the remaining compound was 41.5%.

Block 4
Target: Mitogen-activated protein kinase kinase kinase 11 (MAP3K11, Homo sapiens, UniProt Q16584)
Sequence of UniProt Q16584 (whole entry, looked up): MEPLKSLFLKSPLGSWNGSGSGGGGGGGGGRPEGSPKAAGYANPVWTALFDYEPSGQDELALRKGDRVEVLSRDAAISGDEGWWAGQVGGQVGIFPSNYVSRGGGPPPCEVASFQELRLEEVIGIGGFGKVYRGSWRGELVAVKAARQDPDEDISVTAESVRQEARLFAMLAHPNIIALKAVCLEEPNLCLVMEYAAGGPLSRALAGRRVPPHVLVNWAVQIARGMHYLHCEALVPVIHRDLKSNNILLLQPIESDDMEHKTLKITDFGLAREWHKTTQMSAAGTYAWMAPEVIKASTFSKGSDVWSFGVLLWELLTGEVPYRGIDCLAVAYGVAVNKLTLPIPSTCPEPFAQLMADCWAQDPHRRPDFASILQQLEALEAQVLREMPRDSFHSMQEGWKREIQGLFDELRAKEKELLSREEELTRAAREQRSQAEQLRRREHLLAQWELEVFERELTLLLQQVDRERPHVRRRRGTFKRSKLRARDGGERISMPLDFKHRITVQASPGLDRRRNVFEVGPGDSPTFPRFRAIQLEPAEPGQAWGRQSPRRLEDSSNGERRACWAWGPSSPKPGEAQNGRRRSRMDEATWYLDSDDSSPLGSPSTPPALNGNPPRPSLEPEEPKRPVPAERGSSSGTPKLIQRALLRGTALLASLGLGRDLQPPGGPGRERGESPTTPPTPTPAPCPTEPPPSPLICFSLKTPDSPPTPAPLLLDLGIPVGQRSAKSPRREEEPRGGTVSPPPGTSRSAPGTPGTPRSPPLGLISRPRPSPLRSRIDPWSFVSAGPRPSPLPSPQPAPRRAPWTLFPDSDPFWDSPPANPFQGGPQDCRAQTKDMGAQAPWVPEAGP
Read-out: enzyme activity
Mode: inhibitor
Tested at: 0.5 µM
Relative to: control
The remaining activity of `COc1ccc(-c2cnc3c(-c4ccsc4)cnn3c2)cc1` is reported as 51.9%.
With `COc1cc2ncnc(N3CCN(C(=O)Nc4ccc(Oc5ccccc5)cc4)CC3)c2cc1OC` the remaining activity was 97%.
`O=c1cc(N2CCOCC2)oc2c1ccc1ccccc12` gave a remaining activity of 99.2%.
The remaining activity of `Nc1[nH]nc2nnc(-c3c(-c4ccccc4)nn4ccccc34)cc12` is reported as 94.3%.
With `COc1cc2ncc(-c3ccccc3)nc2cc1OC` the remaining activity was 86.8%.
With `COc1ccc(Cl)cc1NC(=O)Nc1cc(C)nc2ccccc12` the remaining activity was 89%.
`Cc1ccc(NC(=O)c2ccc(CN3CCN(C)CC3)cc2)cc1Nc1nccc(-c2cccnc2)n1` has a remaining activity of 99.7%.
`Cn1cnc2cc3c(Nc4cccc(Br)c4)ncnc3cc21` has a remaining activity of 94.8%.
`O=C(Nc1ccc(Cl)cc1)c1ccccc1NCc1ccncc1` has a remaining activity of 89%.
For `Cc1nc(Nc2ncc(C(=O)Nc3c(C)cccc3Cl)s2)cc(N2CCN(CCO)CC2)n1`, the remaining activity was 87.5%.
The remaining activity of `CS(=O)(=O)CCNCc1ccc(-c2ccc3ncnc(Nc4ccc(OCc5cccc(F)c5)c(Cl)c4)c3c2)o1` is reported as 106%.
With `O=C1NC(=O)/C(=C/c2ccc3nccnc3c2)S1` the remaining activity was 97.5%.
The remaining activity of `CC(C)[C@H](CO)Nc1nc(Nc2cccc(Cl)c2)c2ncn(C(C)C)c2n1` is reported as 40.2%.
With `CCOc1cc2ncnc(Nc3cccc(Br)c3)c2cc1OCC` the remaining activity was 93%.
For `CC(=O)O/N=C1/C(c2c(O)[nH]c3cc(Br)ccc23)=Nc2ccccc21`, the remaining activity was 42.5%.
`CCC(=O)Nc1ccc2ncnc(Nc3cccc(Br)c3)c2c1` has a remaining activity of 97.1%.
`Cn1cc(/C=C2\C(=O)Nc3ccc(S(N)(=O)=O)cc32)c2ccccc21` has a remaining activity of 9.89%.
With `CC(C)c1nn(-c2c(Cl)cccc2Cl)c2nc(Cc3ccc(OCCO)cc3)[nH]c(=O)c12` the remaining activity was 101%.
The remaining activity of `COc1cc2ncnc(Nc3ccc(OCc4ccccc4)cc3)c2cc1OC` is reported as 92.2%.
`C[S+]([O-])c1ccc(-c2nc(-c3ccncc3)c(-c3ccc(F)cc3)[nH]2)cc1` (centres unmarked) gave a remaining activity of 96.4%.
`CN(C)CCCn1cc(C2=C(c3c[nH]c4ccccc34)C(=O)NC2=O)c2ccccc21` has a remaining activity of 61%.
`CCN1/C(=C/C(C)=O)Sc2ccc(OC)cc21` gave a remaining activity of 102%.

Some of these lines once more (block 2):
For HIPK2 (Homo sapiens, UniProt Q9H2X6); competitive binding panel; relative to: vehicle: remaining binding read 76%.
It gave 97% for remaining binding (EIF2AK2 (Homo sapiens, UniProt P19525); competitive binding, scanMAX; PRKR, 1000 nM).
It gave 93% for remaining binding (CDKL3 (Homo sapiens, UniProt Q8IVW4); competitive binding panel; relative to: vehicle).
The remaining binding was 87% (YES1 (Homo sapiens, UniProt P07947); competitive binding; YES).
For IGF1R (Homo sapiens, UniProt P08069); competitive binding panel; relative to: vehicle: remaining binding read 100%.
The remaining binding was 100% (MAP3K12 (Homo sapiens, UniProt Q12852); competitive binding, scanMAX; DLK, 1000 nM).
The remaining binding was 88% (CDC42BPB (Homo sapiens, UniProt Q9Y5S2); competitive binding, scanMAX; MRCKB, 1000 nM).
